{"data": "Published values collected from several papers", "cell line": "CAKI-1", "note": "Each line is one published result; not all experiments were run side by side."}
{"Structure (SMILES)": "CCCN1CCN(c2ccc3[nH]c(-c4ccc5[nH]c(-c6ccc(OCC)c(OCC)c6)nc5c4)nc3c2)CC1", "test": "SRB", "conditions": "10 µM, 48 h", "quantity": "growth percent", "result": "-18.9%"}
{"Structure (SMILES)": "Cn1cncc1C1=CN(c2ncnc3[nH]cnc23)CCS1", "conditions": "renal cancer", "quantity": "GI50", "result": "7.4 µM"}
{"Structure (SMILES)": "CCn1cc(-c2cc(Cn3ccnc3)cc3c2CCN([C@H](c2cc(OC)ccn2)C2CC2)C3=O)c(C(F)(F)F)n1", "test": "cell growth, inhibitor", "conditions": "120 h", "quantity": "EC50", "result": "> 30 µM"}
{"Structure (SMILES)": "CCCCN1CCN(c2ccc3[nH]c(-c4ccc5[nH]c(-c6ccc(C(F)(F)F)cc6)nc5c4)nc3c2)CC1", "test": "SRB", "conditions": "10 µM, 48 h", "quantity": "growth percent", "result": "-77.1%"}
{"Structure (SMILES)": "CCOC(=O)CSc1nc(-c2ccc(Cl)cc2)c2c(NC(=O)c3ccccc3)nnc-2[nH]1", "test": "SRB", "conditions": "10 µM, NCI60 single-dose screen", "scale": "reference: untreated", "quantity": "cell growth", "result": "90.5%"}
{"Structure (SMILES)": "O=C1NC(c2ccccc2)(c2ccccc2)C(=O)N1Cc1cn(-c2cc3ccccc3oc2=O)nn1", "test": "NCI60 single-dose screen", "conditions": "10 µM", "quantity": "growth percentage", "result": "97.7%"}
{"Structure (SMILES)": "O=C1NCCc2[nH]c(-c3ccncc3)cc21", "test": "MTS", "conditions": "NCI60 panel", "quantity": "IC50", "result": "> 10 µM"}
{"Structure (SMILES)": "CCCCN1CCN(c2ccc3[nH]c(-c4ccc5[nH]c(-c6ccc(OCC)c(OCC)c6)nc5c4)nc3c2)CC1", "test": "SRB", "conditions": "10 µM, 48 h", "quantity": "growth percent", "result": "27.7%"}
{"Structure (SMILES)": "O=C(Nc1nnc2n3c(Cc4ccccc4)n[nH]c3nc(-c3ccc(Cl)cc3)c1-2)c1ccccc1", "test": "SRB", "conditions": "10 µM, NCI60 single-dose screen", "scale": "reference: untreated", "quantity": "cell growth", "result": "89.1%"}
{"Structure (SMILES)": "CCCN1CCN(c2ccc3[nH]c(-c4ccc5[nH]c(-c6ccc(C(F)(F)F)cc6)nc5c4)nc3c2)CC1", "test": "SRB", "conditions": "10 µM, 48 h", "quantity": "growth percent", "result": "59%"}
{"Structure (SMILES)": "O=C1NC(c2ccccc2)(c2ccccc2)C(=O)N1Cc1cn(-c2c3ccccc3nc3ccccc23)nn1", "test": "NCI60 single-dose screen", "conditions": "10 µM", "quantity": "growth percentage", "result": "73.5%"}
{"Structure (SMILES)": "O=C(Nc1nnc2n3c(nc(-c4ccc(Cl)cc4)c1-2)SCC3=O)c1ccccc1", "test": "SRB", "conditions": "10 µM, NCI60 single-dose screen", "scale": "reference: untreated", "quantity": "cell growth", "result": "83.8%"}
{"Structure (SMILES)": "S=C([S][Au-][P+](CCCCCC[P+]([Au-][S]C(=S)n1cccn1)(c1ccccc1)c1ccccc1)(c1ccccc1)c1ccccc1)n1cccn1", "test": "cell growth, NCI-60 screen", "conditions": "renal cancer", "quantity": "log10 TGI", "result": "> -4"}
{"Structure (SMILES)": "NNc1nc(-c2ccc(Cl)cc2)c2c(NC(=O)c3ccccc3)nnc-2[nH]1", "test": "SRB", "conditions": "10 µM, NCI60 single-dose screen", "scale": "reference: untreated", "quantity": "cell growth", "result": "93.8%"}
{"Structure (SMILES)": "CC(=O)OC[C@H]1O[C@@H]([S-])[C@H](OC(C)=O)[C@@H](OC(C)=O)[C@@H]1OC(C)=O.CCP(CC)CC.[Au+]", "test": "cell invasion, 3D Transwell invasion", "conditions": "IC20, 24 h", "scale": "reference: untreated", "quantity": "inhibition", "result": "51%"}
{"Structure (SMILES)": "CCOc1ccc(-c2nc3cc(-c4nc5cc(N6CCN(C)CC6)ccc5[nH]4)ccc3[nH]2)cc1OCC", "test": "SRB", "conditions": "10 µM, 48 h", "quantity": "growth percent", "result": "40.8%"}
{"Structure (SMILES)": "O=C(Nc1nnc2n3c(=S)[nH][nH]c3nc(-c3ccc(Cl)cc3)c1-2)c1ccccc1", "test": "SRB", "conditions": "10 µM, NCI60 single-dose screen", "scale": "reference: untreated", "quantity": "cell growth", "result": "74.1%"}
{"Structure (SMILES)": "CCCCN1CCN(c2ccc3[nH]c(-c4ccc5[nH]c(-c6cc(OC)c(OC)c(OC)c6)nc5c4)nc3c2)CC1", "test": "SRB", "conditions": "10 µM, 48 h", "quantity": "growth percent", "result": "87.9%"}
{"Structure (SMILES)": "CCN(CC)c1ccc(C=NNC(=O)CSc2nc3ccccc3c(=O)n2Cc2ccc(S(N)(=O)=O)cc2)c(O)c1", "test": "NCI five-dose screen", "quantity": "TGI", "result": "> 100 µM"}
{"note": "Repeated from above:"}
{"Structure (SMILES)": "O=C1NCCc2[nH]c(-c3ccncc3)cc21", "test": "MTS", "conditions": "NCI60 panel", "quantity": "IC50", "result": "> 10 µM"}
{"Structure (SMILES)": "CCCCN1CCN(c2ccc3[nH]c(-c4ccc5[nH]c(-c6ccc(OCC)c(OCC)c6)nc5c4)nc3c2)CC1", "test": "SRB", "conditions": "10 µM, 48 h", "quantity": "growth percent", "result": "27.7%"}
{"Structure (SMILES)": "O=C(Nc1nnc2n3c(Cc4ccccc4)n[nH]c3nc(-c3ccc(Cl)cc3)c1-2)c1ccccc1", "test": "SRB", "conditions": "10 µM, NCI60 single-dose screen", "scale": "reference: untreated", "quantity": "cell growth", "result": "89.1%"}
